Published values pooled from the literature.
Compare with care: the assays were run in different laboratories. Several values in a cell are separate wells, animals, samples, runs or records. ± gives the spread as reported.
APP monomer: Amyloid-beta precursor protein, monomer (APP, Homo sapiens, UniProt P05067)
Chain of UniProt P05067 (whole entry, looked up): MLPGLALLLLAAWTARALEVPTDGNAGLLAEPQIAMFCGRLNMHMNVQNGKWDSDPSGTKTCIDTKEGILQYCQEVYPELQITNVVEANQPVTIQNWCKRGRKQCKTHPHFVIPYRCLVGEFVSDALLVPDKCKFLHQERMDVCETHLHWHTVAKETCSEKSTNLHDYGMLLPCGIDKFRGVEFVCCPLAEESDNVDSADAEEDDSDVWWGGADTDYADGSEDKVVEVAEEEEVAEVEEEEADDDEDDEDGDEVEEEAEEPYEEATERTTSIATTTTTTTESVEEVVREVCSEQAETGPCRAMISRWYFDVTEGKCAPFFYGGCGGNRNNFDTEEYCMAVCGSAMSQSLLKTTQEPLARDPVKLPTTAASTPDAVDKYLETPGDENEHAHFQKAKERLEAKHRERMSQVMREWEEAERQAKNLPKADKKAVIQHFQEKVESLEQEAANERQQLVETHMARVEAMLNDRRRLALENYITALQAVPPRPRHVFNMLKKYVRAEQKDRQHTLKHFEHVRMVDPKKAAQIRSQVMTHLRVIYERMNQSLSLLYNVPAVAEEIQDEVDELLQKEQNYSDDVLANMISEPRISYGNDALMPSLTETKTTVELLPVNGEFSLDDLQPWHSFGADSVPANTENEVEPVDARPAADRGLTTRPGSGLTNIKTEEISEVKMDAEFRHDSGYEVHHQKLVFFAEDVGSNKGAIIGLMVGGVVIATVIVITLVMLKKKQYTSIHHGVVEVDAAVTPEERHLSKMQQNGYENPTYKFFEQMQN
APP Aβ42 aggregates: Amyloid-beta precursor protein, Aβ42 aggregates (APP, Homo sapiens, UniProt P05067)
APP amyloid-beta aggregates: Amyloid-beta precursor protein, amyloid-beta aggregates (APP, Homo sapiens, UniProt P05067)
APP: Amyloid-beta precursor protein (APP, Homo sapiens, UniProt P05067)

Compound | target | test | system | conditions | how to read | measurement | result
CC(=O)N[C@@H](CC(C)C)C(=O)Nc1ccccc1C(=O)N[C@@H](Cc1ccccc1)C(=O)N[C@@H](Cc1ccccc1)C(=O)N[C@@H](CCCCN)C(N)=O | APP monomer | amyloid aggregation, inhibitor, fluorescence | – | 40 µM, pH 7.4 | – | inhibition | 40%
COCCOCCOCCOC(=O)/C(C#N)=C/c1ccc2cc(NCCN3CCOCC3)ccc2c1 | APP Aβ42 aggregates | fluorescence | – | added: aggregated Abeta42 5 µM | – | excitation maximum | 430 nm
CN(C)c1ccc(C=C(C#N)C(=O)OCC(O)CO)cc1 (stereo not shown) | APP amyloid-beta aggregates | IgG-amyloid beta binding, inhibitor, ELISA | – | added: aggregated amyloid beta | – | maximum inhibition | 79%
CC[C@H](C)[C@H](NC(=O)[C@@H](NC(=O)[C@@H](N)C(C)C)C(C)C)C(=O)N[C@@H](C)C(=O)O | APP | amyloid aggregation, inhibitor, fluorescence | – | 2 µM, 24 h | – | inhibition | 33.9%
CC(C)C[C@@H]1NC(=O)CN(C)C(=O)CCCC(=O)NCCCC[C@@H](C(=O)N[C@@H](CCCNC(=N)N)C(N)=O)NC(=O)[C@H](Cc2ccccc2)NC(=O)[C@H](Cc2ccccc2)NC(=O)[C@H](C(C)C)NC1=O | APP monomer | amyloid aggregation, inhibitor, fluorescence | – | 40 µM, pH 7.4 | – | inhibition | 78.5%
[123I]c1ccc2nc(-c3ccc(-n4ccnn4)nc3)cn2c1 | Amyloid-beta precursor protein, amyloid-beta (APP, Homo sapiens, UniProt P05067) | SPECT | Alzheimer's disease patients, cortex over cerebellum | from 150 min post-injection | relative to: healthy controls | SUVR increase | 58% and ~60%
COCCOCCOCCOC(=O)C(C#N)=Cc1ccc(C=Cc2ccc(N(C)C)cc2)cc1 | APP amyloid-beta aggregates | IgG-amyloid beta binding, inhibitor, ELISA | – | added: aggregated amyloid beta | – | maximum inhibition | 40%
[11CH3]Nc1ccc(-c2nc3ccc(O)cc3o2)cn1 | APP | binding, PET, reference Logan | Alzheimer's disease patients, prefrontal cortex | – | relative to: cerebellum | distribution volume ratio | 1.64 ± 0.19
COCCOCCOCCOC(=O)/C(C#N)=C/c1ccc2cc(N3CCOCC3)ccc2c1 | APP Aβ42 aggregates | fluorescence | – | free probe, 5% DMSO in water | – | excitation maximum | 400 nm
NC(=O)CN(Cc1ccccc1)C(=O)CN(CCOc1cc(-c2ccccn2)nc(-c2ccccn2)c1)C(=O)CNCc1ccccn1 | Amyloid-beta precursor protein, Cu-bound amyloid-beta 1-40 (APP, Homo sapiens, UniProt P05067) | ROS production, inhibitor | – | 10 µM, 30 min, pH 7.4, added: Aβ1-16 10 µM, Cu2+ 9 µM | – | ascorbate consumption | 71%
CC(C)C[C@@H]1NC(=O)CN(C)C(=O)CCC(=O)NCCCC[C@@H](C(=O)N[C@@H](CCCNC(=N)N)C(N)=O)NC(=O)[C@H](Cc2ccccc2)NC(=O)[C@H](Cc2ccccc2)NC(=O)c2ccccc2NC1=O | Amyloid-beta precursor protein, Aβ40 fibrils (APP, Homo sapiens, UniProt P05067) | fibril disruption | – | 2-fold molar excess, pH 7.4, 37 °C, added: preformed Aβ1-40 fibrils | – | ThT fluorescence | decreased
CC[C@H](C)[C@H](NC(=O)[C@@H](NC(=O)[C@@H](N)C(C)C)C(C)C)C(=O)N[C@@H](C)C(N)=O | APP | amyloid aggregation, inhibitor, fluorescence | – | 4 µM, 24 h | – | inhibition | 52.7%
CCCCN(CCCC)c1ccc(C=C(C#N)C(=O)OCCOCCOCCOC)cc1 | APP amyloid-beta aggregates | IgG-amyloid beta binding, inhibitor, ELISA | – | added: aggregated amyloid beta | – | maximum inhibition | 91%

For quick reference, copied from above:
Compound | target | test | system | conditions | how to read | measurement | result
CC(=O)N[C@@H](CC(C)C)C(=O)Nc1ccccc1C(=O)N[C@@H](Cc1ccccc1)C(=O)N[C@@H](Cc1ccccc1)C(=O)N[C@@H](CCCCN)C(N)=O | APP monomer | amyloid aggregation, inhibitor, fluorescence | – | 40 µM, pH 7.4 | – | inhibition | 40%
CC(C)C[C@@H]1NC(=O)CN(C)C(=O)CCC(=O)NCCCC[C@@H](C(=O)N[C@@H](CCCNC(=N)N)C(N)=O)NC(=O)[C@H](Cc2ccccc2)NC(=O)[C@H](Cc2ccccc2)NC(=O)c2ccccc2NC1=O | Amyloid-beta precursor protein, Aβ40 fibrils (APP, Homo sapiens, UniProt P05067) | fibril disruption | – | 2-fold molar excess, pH 7.4, 37 °C, added: preformed Aβ1-40 fibrils | – | ThT fluorescence | decreased
